Published values from different studies.
Compare with care: the assays were run in different laboratories. “And” joins repeats or separate records; there may be more than shown. Values after ≈ are worked out from the molar mass of the structure shown.
Organism: Staphylococcus aureus

C=CC[C@@H]1c2ccc(OC)c(OC)c2CN2CCc3cc4c(cc3[C@H]12)OCO4  relative wound size (P2rx7 A312V/A312V mice, skin wound infection; dose not given, day 3; baseline: day 0): 0.92 and 0.65 and 0.63 and 1.16 and 1.22 and 1.33
OB(O)c1csc2ccccc12  growth (OD600; USA300 fphE::Tn transposon mutant; 1 µM; baseline: wild type): 68.2% and 87.1% and 79.7% and 86.2% and 66.3% and 81.3%
CO/N=C(\C(=O)N[C@@H]1C(=O)N2C(C(=O)O)=C(CSC(=O)c3ccco3)CS[C@H]12)c1csc(N)n1  MBC (CAAS-2019-CAAS-2019-02 clinical drug-resistant isolate, PBS): 2 µg/mL
CCCCCCCCCC(=O)N[C@@H](Cc1c[nH]c2ccccc12)C(=O)N[C@H](CC(N)=O)C(=O)N[C@@H](CC(=O)O)C(=O)N[C@@H]1C(=O)NCC(=O)N[C@@H](CCCN)C(=O)N[C@@H](CC(=O)O)C(=O)N[C@H](C)C(=O)N[C@@H](CC(=O)O)C(=O)NCC(=O)N[C@H](CO)C(=O)N[C@@H]([C@H](C)CC(=O)O)C(=O)N[C@@H](CC(=O)c2ccccc2N)C(=O)O[C@@H]1C  MIC (broth microdilution; BR-VRSA strain 880, Mueller-Hinton broth, Mg2+ 10 mg/L; 16 h, added: Ca2+ 10 mM): 0.125 µg/mL (≈ 0.0771 µM)
CC[C@H](C)[C@H](NC(=O)[C@H](CCCCN)NC(=O)[C@H](CCCCN)NC(=O)[C@H](Cc1ccccc1)NC(=O)[C@@H](NC(=O)[C@@H](NC(=O)[C@H](CCCNC(=N)N)NC(=O)[C@H](Cc1ccccc1)NC(=O)[C@@H](NC(=O)[C@H](CCCCN)NC(=O)[C@H](CCCCN)NC(=O)[C@@H](N)CCSC)[C@@H](C)CC)C(C)C)[C@@H](C)CC)C(=O)N[C@@H](CC(C)C)C(=O)N[C@@H](CCCCN)C(=O)N[C@@H](CCCNC(=N)N)C(=O)N[C@@H](CC(C)C)C(=O)N[C@H](C(=O)N[C@H](C(=O)O)C(C)C)[C@@H](C)CC  MIC (broth microdilution; GU-1 MRSA; 10% fetal bovine serum): 8 µg/mL (≈ 3.52 µM)
CC(C)C[C@H](NC(=O)CNC(=O)CNC(=O)CNC(=O)[C@H](Cc1ccc(O)cc1)NC(=O)[C@H](CC(C)C)NC(=O)[C@@H](NC(=O)CNC(=O)[C@H](Cc1ccc(O)cc1)NC(=O)[C@H](CCCCN)NC(=O)[C@H](CC(N)=O)NC(=O)[C@@H](NC(=O)[C@H](CCCCN)NC(=O)[C@H](Cc1c[nH]c2ccccc12)NC(=O)CN)[C@@H](C)O)[C@@H](C)O)C(=O)N[C@@H](CCCCN)C(=O)N[C@@H](CCCCN)C(=O)N[C@@H](CC(C)C)C(=O)N[C@@H](CC(C)C)C(=O)N[C@@H](CC(C)C)C(=O)N[C@@H](CC(C)C)C(=O)N[C@@H](CC(C)C)C(=O)N[C@@H](CCCCN)C(=O)N[C@@H](CCCCN)C(=O)N[C@@H](CC(C)C)C(=O)NCC(=O)O  MIC (USA300; added: 4 µM FeCl3): 32 µg/mL (≈ 11.2 µM)
CC[C@H](C)[C@H](NC(=O)[C@H](C)NC(=O)[C@H](CCCCN)NC(=O)[C@H](CC(C)C)NC(=O)[C@H](C)NC(=O)[C@@H](NC(=O)[C@H](Cc1c[nH]cn1)NC(=O)[C@H](CC(C)C)NC(=O)[C@@H](NC(=O)[C@@H](NC(=O)[C@H](CCCCN)NC(=O)[C@H](C)NC(=O)[C@H](C)NC(=O)[C@H](CO)NC(=O)[C@H](CCCCN)NC(=O)[C@H](Cc1ccccc1)NC(=O)[C@@H](NC(=O)[C@H](CCCCN)NC(=O)[C@H](CC(C)C)NC(=O)[C@H](Cc1ccccc1)NC(=O)[C@H](CO)NC(=O)[C@H](CCCCN)NC(=O)[C@H](Cc1c[nH]c2ccccc12)NC(=O)[C@H](CCCCN)NC(C)=O)[C@@H](C)O)[C@@H](C)O)C(C)C)[C@@H](C)O)C(=O)N[C@@H](CO)C(=O)N[C@@H](CO)C(N)=O  MIC geometric mean (ATCC 29213): 8 µg/mL (≈ 2.73 µM)
Cc1c2c(nn1C)CSCc1cc(n(C)n1)CSc1cc(c3ccccc3c1)OCCCc1c(C(=O)O)n(C)c3c-2c(Cl)ccc13  log2 fold change (label-free quantitative proteomics, measured: SAOUHSC_02828 protein; SA113; concentration not given; baseline: untreated control): 3.21
CN[C@H](CC(C)C)C(=O)N[C@H]1C(=O)N[C@@H](CC(N)=O)C(=O)N[C@H]2C(=O)N[C@H]3C(=O)N[C@H](C(=O)N[C@H](C(=O)O)c4cc(O)cc(O)c4-c4cc3ccc4O)[C@H](O)c3ccc(c(Cl)c3)Oc3cc2cc(c3O[C@@H]2O[C@H](CO)[C@@H](O)[C@H](O)[C@H]2O[C@H]2C[C@](C)(N)[C@H](O)[C@H](C)O2)Oc2ccc(cc2Cl)[C@H]1O  MBC (CAAS-2019-CAAS-2019-13 clinical drug-resistant isolate, PBS): 4 µg/mL (≈ 2.76 µM)

For quick reference, copied from above:
CN[C@H](CC(C)C)C(=O)N[C@H]1C(=O)N[C@@H](CC(N)=O)C(=O)N[C@H]2C(=O)N[C@H]3C(=O)N[C@H](C(=O)N[C@H](C(=O)O)c4cc(O)cc(O)c4-c4cc3ccc4O)[C@H](O)c3ccc(c(Cl)c3)Oc3cc2cc(c3O[C@@H]2O[C@H](CO)[C@@H](O)[C@H](O)[C@H]2O[C@H]2C[C@](C)(N)[C@H](O)[C@H](C)O2)Oc2ccc(cc2Cl)[C@H]1O  MBC (CAAS-2019-CAAS-2019-13 clinical drug-resistant isolate, PBS): 4 µg/mL (≈ 2.76 µM)
